Experimental data of several laboratories.
Every numbered part comes from another study and shows a few of its results, in no order. Changes are numbered by the printed parent chain.

Set 1 — technique: competition protein-binding microarray; molecule type: double-stranded DNA, one strand shown; matrix: in vitro; concentration: 2 µM; added: Pho4 competitor, 0.05 µM; reading: higher = stronger binding; constant ends, left off below: … GTCTTGATTCGCTTGACGCTGCTG
Target: Centromere-binding protein 1, full length, His-tagged (CBF1, Saccharomyces cerevisiae, UniProt P17106, residues 1-351)
Sequence of UniProt P17106 (whole entry, looked up): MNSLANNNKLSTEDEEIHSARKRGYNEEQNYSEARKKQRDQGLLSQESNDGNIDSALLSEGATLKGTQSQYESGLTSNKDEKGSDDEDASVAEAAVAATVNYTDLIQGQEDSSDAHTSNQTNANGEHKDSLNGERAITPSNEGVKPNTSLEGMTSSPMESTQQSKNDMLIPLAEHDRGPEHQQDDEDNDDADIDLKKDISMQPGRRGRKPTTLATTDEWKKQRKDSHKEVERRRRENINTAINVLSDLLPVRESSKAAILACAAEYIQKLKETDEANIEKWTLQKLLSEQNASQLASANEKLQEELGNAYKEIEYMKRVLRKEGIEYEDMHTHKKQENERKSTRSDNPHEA
Notes: whole 60-bp probe, lowest competitor level
Oligonucleotide | fluorescence intensity [a.u.]
CGGGGTTAAGTTTGAAGGGTGGGTGGCTTGCAGCAG | 75
CGCCTTAATCGCTCCGGCGTGGGTAAAGAAAGCAGA | 57.4
CTTCTGTAAATTTGTCACCTTACTTGACGCGCCCCG | 86.8
CTAACGAAGGTTTGTGATGTGGGTGACAAGCCAAGT | 75.5
CCCGGCCCCCCCAGCCACGTGAACCCCACAAAGTGC | 1680
AAATTACTAAGTTGTTTCGTGGGTGACGCCGTATGA | 77.7
AAAGCGGTAATTTGATAGGTGGGTGCAGATATCTAT | 68.6
CAGCCTCCATTCGGTAGCGTGCTGTATGTCAACAAA | 79.5
GATTTGAATCCAATTCACGTTTCAAGTCATTTTGCC | 122
CGTCCTAGTGATTTTCACGTGACATCCATGAGGAAG | 6800
CGGGGTTAAGTTTGTCACTGTACTTGCTTGCAGCAG | 60.4
GTTCAAGTCTCCTTCCACGGGAATGGTCGGGTAAAT | 66.7
TTGGAAGAGAACCGTCACGTAGGGATGATTTAGAAT | 86.1
CTTTATAAATCTCCACACGTTCCTGTTGGCGATGAT | 100

Set 2 — technique: protein binding microarray; molecule type: double-stranded DNA, one strand shown; matrix: in vitro; concentration: not given; baseline: not given; reading: higher = stronger binding
Target: Histone acetyltransferase KAT6A, winged helix 1, GST fusion (KAT6A, Homo sapiens, UniProt Q92794, residues 1-85)
Notes: 8-mer, flanks averaged, mean of 2 arrays, mostly near background
Construct (chain): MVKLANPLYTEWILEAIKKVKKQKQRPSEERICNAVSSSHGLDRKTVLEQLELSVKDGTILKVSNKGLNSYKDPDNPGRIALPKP
Oligonucleotide | E-score
CACTGAGA | -0.114
CGTAACCA | 0.0834
GTGCTAAC | 0.00184
ATGTGGTA | -0.15
AATCGCGG | 0.263
ATTGCGGC | 0.306
ATGCGCCA | 0.127
GTCTTATA | -0.117
GAACTCAA | -0.252
AAAATCGT | 0.0358
AATAGGGC | -0.112
CATTCGGA | 0.00207
CCACACAA | -0.268
GTGACATA | -0.207
CCTGTGTA | -0.157

Set 3 — technique: RNA Bind-n-Seq; molecule type: RNA; matrix: in vitro; concentration: 200 nM; notes: whole 134-nt RNA, ends assumed; added: 150 mM KCl; baseline: input library; reading: higher = stronger binding
Target: Ras GTPase-activating protein-binding protein 1, full length (G3BP1, Homo sapiens, UniProt Q13283)
Sequence of UniProt Q13283 (whole entry, looked up): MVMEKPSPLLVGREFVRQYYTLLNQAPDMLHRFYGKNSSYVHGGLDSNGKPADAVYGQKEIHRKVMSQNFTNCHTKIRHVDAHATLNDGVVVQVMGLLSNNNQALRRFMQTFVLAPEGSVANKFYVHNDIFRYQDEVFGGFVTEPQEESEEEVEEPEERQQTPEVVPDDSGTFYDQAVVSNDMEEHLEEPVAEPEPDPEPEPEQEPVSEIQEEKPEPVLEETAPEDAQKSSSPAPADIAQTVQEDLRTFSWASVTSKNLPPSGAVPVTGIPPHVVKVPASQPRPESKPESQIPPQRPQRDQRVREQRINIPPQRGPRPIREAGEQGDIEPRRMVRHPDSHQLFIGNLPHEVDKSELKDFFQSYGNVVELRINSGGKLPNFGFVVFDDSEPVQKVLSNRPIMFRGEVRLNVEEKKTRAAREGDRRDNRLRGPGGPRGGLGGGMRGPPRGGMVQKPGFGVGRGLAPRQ
Constant ends, left off below: GGGAGUUCUACAGUCCGACGAUC … UGGAAUUCUCGGGUGUCAAGG
Oligonucleotide | log2 enrichment
CACAGACAACACGCACCCACACAGACACAGAGGGAAGGGGUUGGGAUGGGGACAGGGUGCACAGCAGGGCGGGGUAGAACCCCAGCCCCU | 1.88
ACCAUGCAGGUGGGCAUCUUUGGGAAGUGGGGCAAGGGGGGGAUAGGGAGGGGGGUAACACUUUGGGAACAGGUGGUCCCAGGUCAAAUC | 1.03
GUCCUGUGCUACACAUCGUAUGUACCGAAUCAAACCCCCAAAUUUAAAUUUUUUUAAAAAAGUAUUAUGUUACGCCGUUCGGAUCUGCAC | 0.123
AGUCCUGUGCUACACAUCGUAUGUACCGAAUCGGGGAAAAGGGAAAAGGGAAAAGGGAAAGUAUUAUGUUACGCCGUUCGGAUCUGCACU | 0.182
CUCAAGUCCUGUGCUACACAUCGUAUGUACCGAAUCGGUUUGGAAAAAGGUGGAAAGUAUUAUGUUACGCCGUUCGGAUCUGCACUUCCA | -0.269
CUCAAGUCCUGUGCUACACAUCGUAUGUACCGAAUCGGGAGGGUUUGGGAGGGAAAGUAUUAUGUUACGCCGUUCGGAUCUGCACUUCCA | 1.29
GUCCUGUGCUACACAUCGUAUGUACCGAAUCAAAUUUUUAAACCCCCAAACCCCCAAAAAAGUAUUAUGUUACGCCGUUCGGAUCUGCAC | -0.409
CUCAAGUCCUGUGCUACACAUCGUAUGUACCGAAUCGGUUUUUGGAAAGGAGGAAAGUAUUAUGUUACGCCGUUCGGAUCUGCACUUCCA | -0.458
CACAGACAACACGCACCCACACAGACACAGAGGGAAGGGGUUGGGGUGGGGACAGGGUGCACAGCAGGGCGGGGUAGGACCCCAGCCCCU | 1.66
GUCCUGUGCUACACAUCGUAUGUACCGAAUCGGGUUUUUGGGAAAAAAAGGGAAAGGGAAAGUAUUAUGUUACGCCGUUCGGAUCUGCAC | -0.596
UCAAGUCCUGUGCUACACAUCGUAUGUACCGAAUCGGUUUGGUUUGGUUUGGGGAAAGUAUUAUGUUACGCCGUUCGGAUCUGCACUUCC | -0.704
UCAAGUCCUGUGCUACACAUCGUAUGUACCGAAUCGGGUGGGAAAGGGAAAGGGAAAGUAUUAUGUUACGCCGUUCGGAUCUGCACUUCC | 0.791

Set 4 — technique: protein-binding microarray; molecule type: double-stranded DNA, one strand shown; matrix: in vitro; concentration: not given; reading: higher = stronger binding
Target: Protein C-ets-1 (ETS1, Homo sapiens, UniProt P14921, residues 1-441, K379A, full length assumed)
Sequence of UniProt P14921 (whole entry, unmodified, looked up): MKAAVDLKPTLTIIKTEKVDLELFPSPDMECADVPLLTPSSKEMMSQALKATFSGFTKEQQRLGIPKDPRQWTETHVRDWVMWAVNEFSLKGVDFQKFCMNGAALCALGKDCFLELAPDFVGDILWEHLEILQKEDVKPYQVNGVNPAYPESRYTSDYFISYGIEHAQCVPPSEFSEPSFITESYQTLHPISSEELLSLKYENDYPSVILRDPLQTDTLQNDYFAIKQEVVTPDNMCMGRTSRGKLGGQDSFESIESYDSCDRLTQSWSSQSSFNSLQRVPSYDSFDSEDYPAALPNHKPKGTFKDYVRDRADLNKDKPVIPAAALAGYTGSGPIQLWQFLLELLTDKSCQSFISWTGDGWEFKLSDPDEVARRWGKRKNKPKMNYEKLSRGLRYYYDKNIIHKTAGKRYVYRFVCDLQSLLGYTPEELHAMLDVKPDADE
Notes: k-mer, scored over probes, only values ≥0.25
Oligonucleotide | E-score
CCGGTATA | 0.426
TCCGGGAA | 0.353
ACCCCGCC | 0.424
CAGGTAGA | 0.263
TATATACA | 0.29
ACCAATAC | 0.292
CCCGACGG | 0.334
CGGAACAC | 0.35
CGACAAAA | 0.26
AATGTAAC | 0.259
ATGTGTTA | 0.255
CCGGGACG | 0.363
GTGTCGTA | 0.263
CCGGTTGC | 0.449
GACAGACA | 0.294
ACACCGGG | 0.442
ATTCGTCG | 0.272
ATAATAAC | 0.252

Set 5 — target: CCNA2, cyclin fold, Cln2 fusion (human); technique: yeast growth competition, sequencing; matrix: yeast; notes: strong parent motif; baseline: not given; reading: higher = stronger binding
Starting sequence: GMNC docking peptide (human); KNAKRNLSSEFAN
Substitution | normalised enrichment score
KNAKRSLSSEFAN [N6S] | 4.7
KNAKYNLSSEFAN [R5Y] | 0.0862
KNAKRNLSSEFWN [A12W] | 4.36
KNAKRNLSGEFAN [S9G] | 4.27
KNAKRNLSSAFAN [E10A] | 3.41
KDAKRNLSSEFAN [N2D] | 3.73
KNAKRMLSSEFAN [N6M] | 1.31
KCAKRNLSSEFAN [N2C] | 5.04
KNAKENLSSEFAN [R5E] | 0.345
KNNKRNLSSEFAN [A3N] | 0.653
KNAKRNLSSVFAN [E10V] | 4.02
KNAKRNLSSRFAN [E10R] | 1.71
KPAKRNLSSEFAN [N2P] | 5.67
KNAKRILSSEFAN [N6I] | 0.652
KNAKRNLSSEEAN [F11E] | 0.163
KNAKRELSSEFAN [N6E] | 2.16
KNAKRNLSSMFAN [E10M] | 3.32
KNAKRDLSSEFAN [N6D] | 3.99
KNRKRNLSSEFAN [A3R] | 1.68

Set 6 — technique: RNA Bind-n-Seq; molecule type: RNA; matrix: in vitro; concentration: not given; baseline: input RNA pool; reading: higher = stronger binding
Target: RING finger protein unkempt homolog, zinc fingers 1-6, GST-SBP tag (UNK, Homo sapiens, UniProt Q9C0B0, residues 30-357)
Sequence of UniProt Q9C0B0 (30-357, looked up): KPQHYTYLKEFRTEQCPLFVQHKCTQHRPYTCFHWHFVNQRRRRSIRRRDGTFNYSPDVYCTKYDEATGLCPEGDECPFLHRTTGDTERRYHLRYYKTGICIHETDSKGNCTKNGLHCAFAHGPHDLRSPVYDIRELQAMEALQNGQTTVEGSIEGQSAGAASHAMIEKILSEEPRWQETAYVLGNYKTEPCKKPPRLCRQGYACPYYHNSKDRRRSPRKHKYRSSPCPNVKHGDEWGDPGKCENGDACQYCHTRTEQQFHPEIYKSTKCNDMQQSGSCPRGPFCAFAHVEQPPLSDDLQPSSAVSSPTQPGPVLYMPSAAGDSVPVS
Notes: RNA with constant flanks, human and mouse sites, ends assumed
Constant ends, left off below: GGGAGUUCUACAGUCCGACGAUC … CAACAGAGGAUUGAGCAUCA
Oligonucleotide | bound/input enrichment [ratio]
AUAGAAGCAGAUUUGGGAUAUCCUGGAGGUAAAGCAAGAAUUAUUCAUAAGGAAUCUGAUAUCAUUACUGCGUUUGCUGUUAAUAAGGCAAAUAGAAACUGCAUAGCAAUCGCUUCCAGU | 0.415
AACUUAAUUACUGGGAUGCAGAGUCCUUACUUUAUCGCCAGCCCGUAGGCAUUUCUGAAGUGCACUUUUUUGAAACAUCAUUUUGCUAACUCUCAGCAGUGUCUAAUUAAACUGAGCAAU | 0.212
AUUUGGUCUCUGUCCCCCCCCGGGGGGGGCGGGGGGGGCGAGCCCAGCCCCUCCGGUGCGACUAGGAAUGAAGCUGGACAGUGCCGAAGAGAAGUCGGGGGUCGGCUGCUCCCUGCCUGC | 0.168
GCCUGCCUGCAGGCCUCCCGAGGAGCCCAGACAGCUGCAGCCACAGCUCCCCGUAUCAAGAAAUUUGCCAUCUAUCGAUGGGACCCAGACAAGGCUGGAGACAAACCUCAUAUGCAGACU | 0.237
AAUGGUCCGUGUUUGUGCGUGUAUGUAUAUUUAUGGGCAUGGGUGCAUGCUUGGUGUGUAUUGUACAUGUCUGUAUCCAUGUGUCCCUGUACAAAGAUGAUACUCAUGUGUGGGCGUAGG | 0.313
UUUUUUUUAAUUUUUUUUAAAAUUUCAUAUCUUUUCAUUCCACUGUGUAAAGUGCUAGGAAAUUUCCAAUUUGAAAUUUUGCUUUUUCUGGCAUUGGCAAAAAACCAGUAGAAGUGAAUU | 5.42

Repeated from above (set 4):
Oligonucleotide | E-score
TATATACA | 0.29
ACCAATAC | 0.292
CCCGACGG | 0.334
CGGAACAC | 0.35
CGACAAAA | 0.26
AATGTAAC | 0.259
ATGTGTTA | 0.255
CCGGGACG | 0.363
GTGTCGTA | 0.263
CCGGTTGC | 0.449
GACAGACA | 0.294
ACACCGGG | 0.442
